# Published values collected from several papers.
# Numbered parts are unrelated; each lists some results of a single study. Several values in a cell are separate wells, animals, samples, runs or records.
# Chain of UniProt P00519 (whole entry, unmodified, looked up): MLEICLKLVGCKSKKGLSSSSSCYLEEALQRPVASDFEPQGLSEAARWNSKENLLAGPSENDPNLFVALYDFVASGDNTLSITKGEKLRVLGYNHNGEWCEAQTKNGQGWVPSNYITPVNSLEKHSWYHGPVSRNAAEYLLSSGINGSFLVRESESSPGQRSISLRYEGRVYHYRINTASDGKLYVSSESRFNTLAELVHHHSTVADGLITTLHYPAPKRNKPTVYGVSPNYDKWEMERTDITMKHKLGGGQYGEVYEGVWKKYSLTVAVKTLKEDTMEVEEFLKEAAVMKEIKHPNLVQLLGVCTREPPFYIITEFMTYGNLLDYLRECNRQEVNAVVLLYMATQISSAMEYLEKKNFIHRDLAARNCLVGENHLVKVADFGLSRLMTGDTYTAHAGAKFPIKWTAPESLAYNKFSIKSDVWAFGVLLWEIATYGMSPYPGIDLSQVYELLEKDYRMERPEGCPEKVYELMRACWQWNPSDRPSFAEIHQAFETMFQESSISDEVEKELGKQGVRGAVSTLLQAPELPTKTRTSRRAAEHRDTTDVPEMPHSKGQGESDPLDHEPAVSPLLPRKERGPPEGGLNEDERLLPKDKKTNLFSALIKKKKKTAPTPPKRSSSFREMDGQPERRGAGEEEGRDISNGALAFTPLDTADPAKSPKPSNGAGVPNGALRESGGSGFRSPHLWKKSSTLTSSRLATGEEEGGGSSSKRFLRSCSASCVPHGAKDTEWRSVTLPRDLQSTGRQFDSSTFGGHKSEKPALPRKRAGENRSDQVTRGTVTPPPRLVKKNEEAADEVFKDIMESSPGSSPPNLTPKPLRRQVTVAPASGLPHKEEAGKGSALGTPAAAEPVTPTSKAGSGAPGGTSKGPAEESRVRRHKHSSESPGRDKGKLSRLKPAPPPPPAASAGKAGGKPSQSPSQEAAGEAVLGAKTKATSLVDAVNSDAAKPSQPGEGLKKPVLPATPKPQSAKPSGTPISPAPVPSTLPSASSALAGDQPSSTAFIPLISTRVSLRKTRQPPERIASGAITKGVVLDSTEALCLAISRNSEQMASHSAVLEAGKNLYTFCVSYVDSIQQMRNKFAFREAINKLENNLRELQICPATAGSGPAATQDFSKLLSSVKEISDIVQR
# Chain of UniProt Q16659 (whole entry, looked up): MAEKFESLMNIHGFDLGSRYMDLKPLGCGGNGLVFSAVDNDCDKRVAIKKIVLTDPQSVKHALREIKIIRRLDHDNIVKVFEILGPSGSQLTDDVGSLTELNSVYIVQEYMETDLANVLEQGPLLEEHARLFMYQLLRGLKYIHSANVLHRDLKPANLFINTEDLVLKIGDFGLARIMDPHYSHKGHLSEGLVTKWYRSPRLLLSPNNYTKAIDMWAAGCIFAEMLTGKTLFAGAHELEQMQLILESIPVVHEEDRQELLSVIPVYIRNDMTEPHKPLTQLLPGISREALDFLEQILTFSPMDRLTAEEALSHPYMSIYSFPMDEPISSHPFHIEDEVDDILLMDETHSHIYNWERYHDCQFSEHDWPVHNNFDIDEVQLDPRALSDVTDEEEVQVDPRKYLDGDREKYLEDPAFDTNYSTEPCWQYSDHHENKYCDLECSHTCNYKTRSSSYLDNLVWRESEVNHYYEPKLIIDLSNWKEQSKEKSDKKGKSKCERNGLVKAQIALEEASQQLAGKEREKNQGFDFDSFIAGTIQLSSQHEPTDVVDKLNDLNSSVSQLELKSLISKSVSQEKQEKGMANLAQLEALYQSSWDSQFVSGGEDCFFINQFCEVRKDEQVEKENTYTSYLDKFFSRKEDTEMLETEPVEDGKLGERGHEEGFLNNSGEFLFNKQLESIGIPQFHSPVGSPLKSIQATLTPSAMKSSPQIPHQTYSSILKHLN
# Chain of UniProt P15056 (whole entry, unmodified, looked up): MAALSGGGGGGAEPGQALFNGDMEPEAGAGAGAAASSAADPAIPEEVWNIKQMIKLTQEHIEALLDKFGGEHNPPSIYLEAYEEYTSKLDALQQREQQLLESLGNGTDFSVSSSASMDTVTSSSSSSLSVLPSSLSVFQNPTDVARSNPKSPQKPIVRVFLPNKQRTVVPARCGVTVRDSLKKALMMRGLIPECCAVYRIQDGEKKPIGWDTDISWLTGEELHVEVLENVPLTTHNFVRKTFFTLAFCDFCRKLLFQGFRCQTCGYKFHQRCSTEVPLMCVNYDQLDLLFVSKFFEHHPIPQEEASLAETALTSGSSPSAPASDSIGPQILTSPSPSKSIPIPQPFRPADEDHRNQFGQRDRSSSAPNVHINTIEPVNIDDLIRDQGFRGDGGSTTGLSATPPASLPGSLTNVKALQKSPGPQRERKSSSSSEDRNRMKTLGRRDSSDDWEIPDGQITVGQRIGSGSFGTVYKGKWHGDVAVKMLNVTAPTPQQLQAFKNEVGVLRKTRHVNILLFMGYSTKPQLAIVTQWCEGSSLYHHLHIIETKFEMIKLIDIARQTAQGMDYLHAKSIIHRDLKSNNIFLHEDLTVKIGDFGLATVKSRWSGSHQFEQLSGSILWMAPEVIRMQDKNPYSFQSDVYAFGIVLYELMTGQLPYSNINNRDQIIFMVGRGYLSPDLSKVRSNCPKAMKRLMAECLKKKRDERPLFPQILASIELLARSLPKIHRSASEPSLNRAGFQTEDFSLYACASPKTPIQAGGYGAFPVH
# Chain of UniProt P54764 (whole entry, looked up): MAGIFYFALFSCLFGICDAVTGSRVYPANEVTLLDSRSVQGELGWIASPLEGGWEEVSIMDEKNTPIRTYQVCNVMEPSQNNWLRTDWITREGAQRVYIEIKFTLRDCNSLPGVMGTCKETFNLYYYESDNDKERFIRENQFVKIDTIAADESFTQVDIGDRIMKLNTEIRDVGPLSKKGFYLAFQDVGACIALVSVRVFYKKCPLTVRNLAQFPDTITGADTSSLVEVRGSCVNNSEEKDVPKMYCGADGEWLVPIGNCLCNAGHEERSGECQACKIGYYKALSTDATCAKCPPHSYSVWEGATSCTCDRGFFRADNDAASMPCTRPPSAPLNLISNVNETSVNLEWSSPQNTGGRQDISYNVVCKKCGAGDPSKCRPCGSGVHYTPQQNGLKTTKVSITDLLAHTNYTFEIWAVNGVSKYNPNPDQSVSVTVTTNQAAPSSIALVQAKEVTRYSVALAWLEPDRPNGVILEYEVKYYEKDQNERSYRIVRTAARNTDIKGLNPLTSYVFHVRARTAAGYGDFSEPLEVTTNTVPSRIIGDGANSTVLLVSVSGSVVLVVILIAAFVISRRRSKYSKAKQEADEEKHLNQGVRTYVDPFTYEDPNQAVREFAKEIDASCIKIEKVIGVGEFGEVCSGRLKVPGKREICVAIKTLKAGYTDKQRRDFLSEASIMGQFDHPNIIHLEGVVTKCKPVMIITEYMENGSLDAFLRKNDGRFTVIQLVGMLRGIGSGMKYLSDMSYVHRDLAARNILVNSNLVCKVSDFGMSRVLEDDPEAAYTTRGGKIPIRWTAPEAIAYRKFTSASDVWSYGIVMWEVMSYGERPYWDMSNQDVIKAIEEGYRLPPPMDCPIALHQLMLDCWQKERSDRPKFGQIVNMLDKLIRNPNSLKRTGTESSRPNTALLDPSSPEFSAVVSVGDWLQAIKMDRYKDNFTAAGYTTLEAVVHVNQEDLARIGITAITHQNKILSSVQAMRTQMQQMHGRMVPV
# Chain of UniProt Q9UPZ9 (whole entry, looked up): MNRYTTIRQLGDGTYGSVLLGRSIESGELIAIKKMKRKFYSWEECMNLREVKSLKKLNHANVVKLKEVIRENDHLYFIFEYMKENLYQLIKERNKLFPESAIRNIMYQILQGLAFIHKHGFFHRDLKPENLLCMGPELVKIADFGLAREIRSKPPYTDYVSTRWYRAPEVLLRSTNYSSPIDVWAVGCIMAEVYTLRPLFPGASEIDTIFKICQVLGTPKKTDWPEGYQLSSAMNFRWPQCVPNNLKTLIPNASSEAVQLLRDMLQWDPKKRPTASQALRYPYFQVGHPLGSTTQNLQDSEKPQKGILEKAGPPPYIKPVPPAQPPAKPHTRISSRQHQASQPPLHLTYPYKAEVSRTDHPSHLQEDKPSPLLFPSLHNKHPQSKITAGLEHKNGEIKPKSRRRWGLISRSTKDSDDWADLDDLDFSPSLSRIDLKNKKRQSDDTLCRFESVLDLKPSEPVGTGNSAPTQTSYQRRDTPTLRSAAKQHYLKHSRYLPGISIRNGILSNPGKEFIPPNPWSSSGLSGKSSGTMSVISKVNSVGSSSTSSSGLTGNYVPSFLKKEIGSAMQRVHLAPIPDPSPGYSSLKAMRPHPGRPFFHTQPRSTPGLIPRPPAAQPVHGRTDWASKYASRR
# Chain of UniProt Q8N5S9 (whole entry, looked up): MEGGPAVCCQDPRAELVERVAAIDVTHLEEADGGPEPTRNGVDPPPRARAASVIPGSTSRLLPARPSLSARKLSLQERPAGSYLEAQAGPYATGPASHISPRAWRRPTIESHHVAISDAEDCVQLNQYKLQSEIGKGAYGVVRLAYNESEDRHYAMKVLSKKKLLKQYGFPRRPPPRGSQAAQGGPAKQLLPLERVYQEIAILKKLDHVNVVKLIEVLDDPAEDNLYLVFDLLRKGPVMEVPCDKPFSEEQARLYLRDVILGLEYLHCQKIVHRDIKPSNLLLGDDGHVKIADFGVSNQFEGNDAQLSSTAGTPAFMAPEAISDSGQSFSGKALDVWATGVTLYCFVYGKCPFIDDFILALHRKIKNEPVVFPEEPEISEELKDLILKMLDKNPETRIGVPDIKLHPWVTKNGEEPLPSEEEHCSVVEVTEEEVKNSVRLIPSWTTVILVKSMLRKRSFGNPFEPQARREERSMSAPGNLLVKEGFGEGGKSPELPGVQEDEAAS

# Series 1 — organism: Sarcocystis neurona; observed: parasite growth; concentration: 10 µM; time: 96 h; relative to: untreated
Structure (SMILES),log2 fold change
C[C@H]1C[C@@H]2[C@H]([C@@H](O)C[C@@]3(C)[C@H]2CC[C@]3(O)C(=O)CO)[C@@]2(C)C=CC(=O)C=C12,0.26
CCC(=O)O[C@]1(C(=O)CCl)[C@@H](C)C[C@H]2[C@@H]3CCC4=CC(=O)C=C[C@]4(C)[C@@]3(F)[C@@H](O)C[C@@]21C,-0.1
CN1CCN(CCCN2c3ccccc3Sc3ccc(Cl)cc32)CC1,-0.23
CN(C)CCCC1(c2ccc(F)cc2)OCc2cc(C#N)ccc21 (stereo not drawn),-0.0847
Cc1ccc(N(CC2=NCCN2)c2cccc(O)c2)cc1,0.26

# Series 2 — cell line: HH; technique: CCK-8
# SMILES: CC(C)(C)c1cnc(CSc2cnc(NC(=O)C3CCN(C(=O)COCCOCCSc4cccc5c4C(=O)N(C4CCC(=O)NC4=O)C5=O)CC3)s2)o1 (stereo not drawn)
concentration,viability
500 nM,13.8% and 12.6%
50 nM,94.6% and 95.6%
1000 nM,5.67% and 6.59%
400 nM,61.5% and 54.4%

# Series 3 — concentration: 0.1 µM
# Compound: CCOC(=O)c1cc2cc(-c3cc(C(=O)NCc4ccc(C(=O)O)cc4)nn3C)ccc2[nH]1
target,observed,technique,remaining binding [%]
"Tyrosine-protein kinase ABL1, non-phosphorylated (ABL1, Homo sapiens, UniProt P00519, F317L)",cell-free assay,competition with immobilised ligand,61
"EPHA4 (Homo sapiens, UniProt P54764)",cell-free assay,competition with immobilised ligand,96
"FLT4 (Homo sapiens, UniProt P35916)",cell-free assay,competition with immobilised ligand,97
"CILK1 (Homo sapiens, UniProt Q9UPZ9)",cell-free assay,competition with immobilised ligand,85
"Tyrosine-protein kinase ABL1, phosphorylated (ABL1, Homo sapiens, UniProt P00519, F317I)",binding,,84
"PRKCD (Homo sapiens, UniProt Q05655)",cell-free assay,competition with immobilised ligand,90
"PIK3CD (Homo sapiens, UniProt O00329)",cell-free assay,competition with immobilised ligand,65
"STK38L (Homo sapiens, UniProt Q9Y2H1)",cell-free assay,competition with immobilised ligand,72
"MAPK6 (Homo sapiens, UniProt Q16659)",cell-free assay,competition with immobilised ligand,97
"STK25 (Homo sapiens, UniProt O00506)",cell-free assay,competition with immobilised ligand,100
"ULK1 (Homo sapiens, UniProt O75385)",cell-free assay,competition with immobilised ligand,87
"MAP2K7 (Homo sapiens, UniProt O14733)",cell-free assay,competition with immobilised ligand,97
"BRAF (Homo sapiens, UniProt P15056, V600E)",cell-free assay,competition with immobilised ligand,100
"CASK (Homo sapiens, UniProt O14936)",cell-free assay,competition with immobilised ligand,71
"CAMKK1 (Homo sapiens, UniProt Q8N5S9)",cell-free assay,competition with immobilised ligand,100

# Series 4 — technique: logD(dd/w) and ALogP; setting: JT method
Compound,lipophilic permeability efficiency
CC(C)C[C@@H]1NC(=O)[C@H](Cc2cscn2)NC(=O)[C@H](CC(C)C)NC(=O)[C@H](C(C)C)NC(=O)[C@H](CC(C)C)NC(=O)[C@@H](CC(C)C)NC(=O)[C@H](CC(C)C)NC1=O,2.41
CC(C)C[C@@H]1NC(=O)[C@H](C)NC(=O)[C@@H](CC(C)C)NC(=O)[C@H](CC(C)C)NC(=O)[C@@H](Cc2cscn2)NC(=O)[C@H](CC(C)C)NC(=O)[C@@H](CC(C)C)NC1=O,0.792
CC(C)C[C@@H]1NC(=O)[C@H](Cc2cscn2)NC(=O)[C@H](CCC(=O)N2CCCC2)NC(=O)[C@H](CC(C)C)NC(=O)[C@@H](CCC(=O)N2CCCC2)NC(=O)[C@H](CC(C)C)NC(=O)[C@@H](CC(C)C)NC1=O,2.15
CC(C)C[C@@H]1NC(=O)[C@H](CCC(=O)N2CCCC2)NC(=O)[C@H](CCC(=O)N2CCCC2)NC(=O)[C@@H](CCC(=O)N2CCCC2)NC(=O)[C@H](CC(C)C)NC(=O)[C@@H](CC(C)C)NC(=O)[C@H](CC(C)C)NC1=O,1.79
CC(C)C[C@@H]1NC(=O)[C@H](CC(C)C)NC(=O)[C@@H](CC(C)C)NC(=O)[C@@H](C)NC(=O)[C@H](C(C)C)NC(=O)[C@H](C)NC(=O)[C@H](C)NC1=O,1.67
CC(C)C[C@@H]1NC(=O)[C@H](C(C)C)NC(=O)[C@H](C)NC(=O)[C@@H](CC(C)C)NC(=O)[C@@H](CCC(=O)N2CCCC2)NC(=O)[C@H](CC(C)C)NC(=O)[C@@H](CC(C)C)NC1=O,1.84

# Excerpt of the above (series 1):
Structure (SMILES),log2 fold change
Cc1ccc(N(CC2=NCCN2)c2cccc(O)c2)cc1,0.26
CN1CCN(CCCN2c3ccccc3Sc3ccc(Cl)cc32)CC1,-0.23
